Assay results of several laboratories.
Compare with care: the assays were run in different laboratories. “And” joins repeats or separate records; there may be more than shown. ± marks the error that the study gave.

SMILES	target or system	assay	setting	how to read	quantity	result
Cn1cc(Nc2nccc(-c3ccc4c(c3)CN(C3COC3)CC[C@H]4NC(=O)c3cn(C(C)(C)C)nn3)n2)cn1	human B cells		100 nM, 64 h, stimulation-downregulated genes, added: anti-IgM		number of upregulated genes	14
Cn1cc(-c2ccc(-c3cncc(Cl)c3N3CCC4(CCNC4=O)CC3)cc2)cn1	COLO 205	gene expression, microarray, item: AK4 mRNA	concentration not given, 6 h	relative to: untreated cells	log2 fold change	2.25
COc1cc(Br)c(Nc2nc(-c3c(C)nc4ncccn34)cs2)c(Br)c1	HD-MB03		concentration not given, added: ribociclib NG	relative to: ribociclib over DMSO	fold change in IC50	1.55
CCn1cc(-c2cc(Cn3ccoc3=N)cc3c2CCN([C@@H](C)c2cc(OC)ccn2)C3=O)c(C(F)(F)F)n1	SW 1116	cell growth, inhibitor	120 h		EC50	> 30 µM
COc1nc(C)nc(Cl)c1NC1=NCCN1	Nedd8-cullin1 interaction	neddylation, AlphaScreen	100 µM		inhibition	15.2%
CC(C)C[C@H](NC(=O)[C@H](Cc1ccccc1)NC(=O)c1cnccn1)B(O)O	HD-MB03	cell growth	168 h, single agent		IC50	0.0078 µM
Nc1ncnc2c1ncn2[C@@H]1O[C@H](CO)[C@@H](O)[C@H]1O	activated human T cells		1 µM	higher = more TNF	TNF production	3560 a.u. and 3810 a.u. and 3710 a.u.
COc1cc(C(=O)O)ccc1NC(=O)[C@@H]1N[C@@H](CC(C)(C)C)[C@](C#N)(c2ccc(Cl)cc2F)[C@H]1c1cccc(Cl)c1F	HD-MB03	cell growth	168 h, single agent		IC50	0.0499 µM
C=Cc1c2[n-]c(c1C)/C=c1\[n-]/c(c(C)c1C=C)=C\c1[n-]c(c(CCC(=O)O)c1C)/C=c1\[n-]c(c(C)c1CCC(=O)O)=C2.[Sn+4]	SH-SY5Y	RNA-seq, item: SH3TC1 mRNA	5 µM, 5 h	relative to: untreated cells	fold change	1.78
O=C(/C=C/C=C/C=C/C1CCCCC1)NC1=C[C@@](O)(/C=C/C=C/C=C/C(=O)NC2=C(O)CCC2=O)[C@@H]2O[C@@H]2C1=O	SU.86.86	cell growth, CellTiter-Glo	78 h		GI50	> 30 µM
CCCc1nc(C(C)(C)O)c(C(=O)OCc2oc(=O)oc2C)n1Cc1ccc(-c2ccccc2-c2nnn[nH]2)cc1	Nedd8-cullin1 interaction	neddylation, AlphaScreen	100 µM		inhibition	79.6%
COc1cnc2cccc(N3CCc4c(cc(Cn5ccnc5C)cc4-c4cn(C)nc4C(F)(F)F)C3=O)c2c1	NCI-H2030	cell growth, inhibitor	120 h		EC50	3.2 µM
CC/C(=N\NC(=O)C(C)Nc1ccccc1)c1ccc(O)c(C)c1O (stereo not shown)	SK-OV-3	Western blot, item: YAP	10 µM, 3 h, 2D culture, unit not given	relative to: β-actin	protein level	1.56 ± 0.05
COc1cccc(-c2cccc(NC(=O)CCc3cccc4c3B(O)OC4)c2)c1	HCT-116 CPSF3 mutant clones			relative to: parental HCT-116	resistance	≥ 3.4 fold
NC(=O)C1CCCN1C(=O)Cc1ccc(N(CCCO)Cc2cnc3nc(N)nc(N)c3n2)cc1 (stereo not shown)	786-O	high-content imaging, item: MitoTracker Red uptake	10 µM		mitochondrial toxicity	18.8 ± 10.1%
CCn1cc(-c2cc(Cn3ccnc3)cc3c2CCN([C@H](c2cc(OC)ccn2)C2CC2)C3=O)c(C(F)(F)F)n1	LCLC-97TM1	cell growth, inhibitor	120 h		EC50	> 30 µM
Cc1cnc2ccc3c(c2n1)N1CCC(O)N=C1N3C (stereo not shown)	BALB/c 3T3	colony formation	5 µM		plating efficiency	13%
Nc1ccn([C@@H]2O[C@H](CO)[C@@H](O)C2(F)F)c(=O)n1	HD-MB03	cell growth	168 h, single agent		IC50	0.0263 µM
NC(=NCCC[C@@H](C(=O)NCc1ccccc1)n1cc(-c2ccc(-c3ccccc3)cc2)nn1)c1ccc([N+](=O)[O-])o1	mouse iBMDM	STING signalling, qPCR	concentration not given, 2 h, added: diABZI 500 nM		IL6 mRNA level	inhibited
Cc1cccc(-c2[nH]c(CNc3ccccc3F)nc2-c2ccc3ncnn3c2)n1	MM1.S	XTT	1.5 µM		viability	45% and 47% and 39%
Cn1cnc2c(F)c(Nc3ccc(Br)cc3F)c(C(=O)NOCCO)cc21	A-375		0.1562 µM, 72 h		viability	46.9%
Nc1ccn([C@H]2CC[C@@H](CO)O2)c(=O)n1	primary rat hippocampal/cortical neuron-glia cultures		1 µM, added: 1 µM α-synuclein oligomers		reversal of trafficking deficit	-16.3%

Some of these lines once more:
SMILES	target or system	assay	setting	how to read	quantity	result
Cc1cnc2ccc3c(c2n1)N1CCC(O)N=C1N3C (stereo not shown)	BALB/c 3T3	colony formation	5 µM		plating efficiency	13%
Nc1ccn([C@@H]2O[C@H](CO)[C@@H](O)C2(F)F)c(=O)n1	HD-MB03	cell growth	168 h, single agent		IC50	0.0263 µM
NC(=NCCC[C@@H](C(=O)NCc1ccccc1)n1cc(-c2ccc(-c3ccccc3)cc2)nn1)c1ccc([N+](=O)[O-])o1	mouse iBMDM	STING signalling, qPCR	concentration not given, 2 h, added: diABZI 500 nM		IL6 mRNA level	inhibited
